# Experimental data gathered from unrelated publications.
# ± gives the spread as reported.
SMILES,organism,test,test system,conditions,IC50 [nM]
[H]/N=C(\N/C(=N/[H])Nc1ccc(Cl)cc1)NC(C)C,Plasmodium yoelii,oxygen consumption,17XL,,> 12000
Cc1ccc(Nc2nc(-c3cc(C(=O)Nc4cccc(O)c4)no3)cs2)cc1,Mycobacterium avium,,11,96 h,> 100000
Cc1ccc(Cn2cc(/C=N/N3C(=O)CSC3=S)c3cc([N+](=O)[O-])ccc32)cc1,Leishmania donovani,"parasite growth, resazurin",THP-1,"72 h, intracellular, amastigote",> 10000
CCN(CC)CCCC(C)Nc1ccnc2cc(Cl)ccc12 (stereo not shown),Plasmodium vivax,schizont maturation,field isolates,20% human serum,64
N#CSCCOc1cccc(Oc2ccccc2)c1,Toxoplasma gondii,,"hTERT fibroblasts, RFP-expressing tachyzoites",,4000
Cc1ccc(Nc2nc(-c3cc(C(=O)Nc4ccccc4C)no3)cs2)cc1,Mycobacterium avium,,11,96 h,> 100000
CCN(CC)CCCC(C)Nc1ccnc2cc(Cl)ccc12 (stereo not shown),Plasmodium yoelii,oxygen consumption,"17XL, infected red blood cells",,> 12000
CC[C@H](CO)Nc1nc(NCc2ccccc2O)c2ncn(C(C)C)c2n1,Human adenovirus E serotype 4,"viral replication, plaque reduction","A549, RI-6",5 days,2400 ± 1300
O=C(Nc1ccc2[nH]c3c(C4=C[C@@]5(O)CC/C=C\CCCCN6CC[C@@H]4[C@]4(C[C@@H]7/C=C\CCCCN7[C@H]45)C6)nccc3c2c1)C1CCCCC1,Mycobacterium intracellulare,microbial growth,,,1480
Cc1ccc(Nc2nc(-c3cc(C(=O)Nc4ccccc4)no3)co2)cc1,Mycobacterium avium,,11,96 h,> 100000
COc1cc(C)c(-c2c(C)cc(OC)c3c(=O)cc(-c4ccc(N(C)C)cc4)oc23)c2oc(-c3ccc(N(C)C)cc3)cc(=O)c12,Toxoplasma gondii,"parasite proliferation, 3H-uracil incorporation","HS27 host cells, ME49 tachyzoites",,1600
O=[N+]([O-])c1ccc2[nH]ccc2c1,Leishmania donovani,"parasite growth, resazurin",THP-1,"72 h, intracellular, amastigote",> 10000
Cc1ccc(Nc2nc(-c3cc(C(=O)Nc4ccncc4)no3)cs2)cc1,Mycobacterium avium,,11,96 h,> 100000
CO[C@@H]1C(=O)CC[C@]2(CO2)[C@@]1(O)[C@@]1(C)O[C@@H]1CC=C(C)C,Plasmodium yoelii,liver-stage schizont size,HepG2-A16-CD81EGFP,,0.736
O=C(Nc1ccccn1)c1cc(-c2csc(Nc3ccccc3)n2)on1,Mycobacterium avium,,11,96 h,> 100000
C=C1C(=O)O[C@@H]2[C@H]1CC[C@H](C)[C@@H]1CCC(=O)[C@@]21C,human immunodeficiency virus 1,"viral transcription, luciferase reporter",MT2 transfected with pNL4.3-Luc,48 h,130
CC(C)(C)C1=CC(=NNC(=O)c2ccccc2)C=C(C(C)(C)C)C1=O,Toxoplasma gondii,"parasite growth, fluorescence",,"5 days, intracellular",2000
COc1ccc(-c2cc(=O)c3cc(OC)ccc3o2)c(OC)c1,human immunodeficiency virus 1,"viral transcription, luciferase reporter",MT2 transfected with pNL4.3-Luc,48 h,640
Cc1cc(C)cc(Nc2nc(-c3cc(C(=O)Nc4ccccc4)no3)cs2)c1,Mycobacterium avium,,11,96 h,> 100000

# Repeated from above:
SMILES,organism,test,test system,conditions,IC50 [nM]
O=C(Nc1ccc2[nH]c3c(C4=C[C@@]5(O)CC/C=C\CCCCN6CC[C@@H]4[C@]4(C[C@@H]7/C=C\CCCCN7[C@H]45)C6)nccc3c2c1)C1CCCCC1,Mycobacterium intracellulare,microbial growth,,,1480
